Results from different studies.
A part holds a random share of what one study measured. Positions count from the first letter of the parent shown.

Set 1
Target: ABI1, truncated, D143A, DHFR fusion (Arabidopsis thaliana)
Method: DHFR PCA, deep sequencing
Matrix: yeast
Setting: methotrexate growth selection, single substitutions
Added: (+)-ABA 0.032 µM
Baseline: wild-type fitted maximum
Reading: higher = stronger binding
Starting sequence: PYL1, truncated, DHFR fusion (Arabidopsis thaliana); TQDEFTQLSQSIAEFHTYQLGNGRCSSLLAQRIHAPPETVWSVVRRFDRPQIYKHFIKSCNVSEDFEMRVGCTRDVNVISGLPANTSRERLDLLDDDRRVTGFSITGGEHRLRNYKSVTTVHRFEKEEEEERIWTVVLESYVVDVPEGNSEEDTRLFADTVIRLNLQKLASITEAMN; partner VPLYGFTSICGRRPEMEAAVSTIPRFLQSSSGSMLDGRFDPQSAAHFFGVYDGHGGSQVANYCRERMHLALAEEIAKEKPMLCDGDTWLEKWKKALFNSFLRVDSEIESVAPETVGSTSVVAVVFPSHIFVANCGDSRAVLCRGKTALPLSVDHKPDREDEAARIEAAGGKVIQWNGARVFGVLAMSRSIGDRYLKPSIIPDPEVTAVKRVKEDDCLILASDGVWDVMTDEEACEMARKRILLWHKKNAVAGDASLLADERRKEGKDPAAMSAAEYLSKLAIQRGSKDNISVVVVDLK
Substitution | relative binding score
V78I | 44.7%
V44L | 6.64%
R32E | 26.5%
N114Y | 4.44%
E4P | 7.09%

Set 2
Target: Ras GTPase-activating protein-binding protein 1, RRM domain (G3BP1, Homo sapiens, UniProt Q13283)
Sequence of UniProt Q13283 (whole entry, looked up): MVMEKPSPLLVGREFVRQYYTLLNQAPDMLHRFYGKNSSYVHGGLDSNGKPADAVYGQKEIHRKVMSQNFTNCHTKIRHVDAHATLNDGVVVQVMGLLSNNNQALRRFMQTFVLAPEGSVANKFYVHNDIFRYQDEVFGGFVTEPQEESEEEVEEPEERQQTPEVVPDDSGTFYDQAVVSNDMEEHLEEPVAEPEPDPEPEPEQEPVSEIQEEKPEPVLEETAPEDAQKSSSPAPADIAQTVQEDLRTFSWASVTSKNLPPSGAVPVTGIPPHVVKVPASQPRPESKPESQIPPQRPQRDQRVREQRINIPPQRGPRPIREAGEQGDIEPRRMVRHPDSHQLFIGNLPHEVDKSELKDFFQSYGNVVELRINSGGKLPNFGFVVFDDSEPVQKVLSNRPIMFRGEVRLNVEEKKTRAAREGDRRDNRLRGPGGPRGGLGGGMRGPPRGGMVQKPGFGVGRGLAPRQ
Method: RNA Bind-n-Seq
Form: RNA
Matrix: in vitro
Concentration: 1 µM
Setting: whole 134-nt RNA, ends assumed
Added: 150 mM KCl
Baseline: input library
Reading: higher = stronger binding
Shared flanks, not repeated: GGGAGUUCUACAGUCCGACGAUC … UGGAAUUCUCGGGUGUCAAGG
Oligonucleotide | log2 enrichment
UACUGCUCCUCAGCAGGAAGCGGAUGCUGAGGUGAACACAGAAACACUAAAUAAGUCCUCCCAGGGGAGCUCCUCGAGCACACAAUCAGC | -0.0381
UCAAGUCCUGUGCUACACAUCGUAUGUACCGAAUCGGUUUUUUUGGUGGUUUGGAAAGUAUUAUGUUACGCCGUUCGGAUCUGCACUUCC | -0.196
AGAAAGCCCAGGAGGAACCACCUGCCAAGCUGCUGGAUGACCUUUUCCGAAAGACCAAGGCAGCUCCCUGCAUCUAUUGGCUCCCACUGA | -0.185
UGCUUCUCUAUGGAAAGGACUUUCCCCCAAGCUGGACGAGGCAUUAAGAAGGAUAGAGGACUCCAGCAGGCUGACUCUACACUUCAUCAU | -0.226
ACCAUGCAGGUAAACAUCUUUGGGAAGUGGGGCAAGGGGGGGAUAGGGAGGGGGGUAACACUUUGGGAACAGGUGGUCCCAGGUCGUUUC | -0.332
UGUGCUACACAUCGUAUGUACCGAAUCGGGGUUUUUUUGGGGAAAAAAAGGGGUUUUUGGGGAAAGUAUUAUGUUACGCCGUUCGGAUCU | 0.783
CUCAAGUCCUGUGCUACACAUCGUAUGUACCGAAUCGGGAAAGGGAGGGUGGGAAAGUAUUAUGUUACGCCGUUCGGAUCUGCACUUCCA | 0.75
GUCCUGUGCUACACAUCGUAUGUACCGAAUCGGUUUUUUUGGAAAAAAAGGAAAAAGGAAAGUAUUAUGUUACGCCGUUCGGAUCUGCAC | -0.339

Set 3
Target: CCND1, cyclin fold, Cln2 fusion (human)
Method: yeast growth competition, sequencing
Matrix: yeast
Setting: weak parent motif
Baseline: not given
Reading: higher = stronger binding
Starting sequence: WEE1 docking peptide (human); HKTFRKLRLFDTP; partner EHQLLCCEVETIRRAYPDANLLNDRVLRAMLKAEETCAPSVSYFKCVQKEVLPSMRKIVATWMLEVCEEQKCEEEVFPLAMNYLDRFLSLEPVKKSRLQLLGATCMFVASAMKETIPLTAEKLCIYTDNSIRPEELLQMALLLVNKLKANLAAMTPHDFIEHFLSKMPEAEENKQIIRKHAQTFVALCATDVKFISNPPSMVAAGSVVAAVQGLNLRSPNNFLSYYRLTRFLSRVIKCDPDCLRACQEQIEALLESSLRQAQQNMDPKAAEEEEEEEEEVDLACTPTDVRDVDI
Substitution | normalised enrichment score
T12H | 0.376
K6D | 0.266
T3E | -0.693
R5G | -0.189
R8T | -0.0135

Mixed results
Molecule | target | test | system | setting | how to read | measurement | value
PhoQ, residues 284 288 289 292 302 303 SVTLVV | PhoP, residues 12 14 15 18 19 VQGLL (Escherichia coli, UniProt P23836) | Sort-seq, refers to: YFP reporter | E. coli | PhoQ-PhoP variant library, added: 10 µM Mg2+ | baseline: high Mg2+ state, higher = stronger signaling | fold induction | 8.86
